Assay results pooled from the literature.
± marks the error that the study gave. In brackets after ≈: the same amount, converted by molar mass.
Organism: Escherichia coli

SMILES | test | test system | conditions | how to read | quantity | result
C[n+]1nn(CCCCN2C(=O)C=CC2=O)cc1COCCCCN1C(=O)C=CC1=O | growth, turbidity OD600 | ΔtolC | 24 h |  | IC50 | > 100 µM
CC[C@H](C)[C@H](NC(=O)[C@H](C)NC(=O)CNC(=O)[C@H](C)NC(=O)[C@H](CCCCN)NC(=O)[C@H](CO)NC(=O)[C@H](C)NC(=O)[C@H](CCSC)NC(=O)CN)C(=O)N[C@@H](C)C(=O)NCC(=O)N[C@@H](CCCCN)C(=O)N[C@H](C(=O)N[C@@H](C)C(=O)N[C@@H](CCCCN)C(=O)N[C@H](C(=O)N[C@@H](C)C(=O)N[C@@H](CC(C)C)C(=O)N[C@@H](CCCCN)C(=O)N[C@@H](C)C(=O)N[C@@H](CC(C)C)C(N)=O)C(C)C)[C@@H](C)CC |  | CFT073 wild type | added: nalidixic acid |  | combination index | 1.08
C[n+]1nn(CCCCCCN2C(=O)C=CC2=O)cc1COCCCCCCN1C(=O)C=CC1=O | growth, turbidity OD600 | ΔtolC | 24 h |  | IC50 | > 100 µM
CC(C)C[C@@H]1NC(=O)[C@H](CCCNC(=N)N)NC(=O)[C@H](CCCNC(=N)N)NC(=O)[C@@H](NC(=O)[C@@H](N)CCC(=O)O)CSSC[C@@H](C(=O)N[C@@H](CCCNC(=N)N)C(=O)NCC(=O)N[C@@H](CCCNC(=N)N)C(N)=O)NC(=O)[C@H](Cc2ccc(O)cc2)NC(=O)[C@H]([C@@H](C)O)NC(=O)[C@H](C(C)C)NC(=O)[C@H](Cc2c[nH]c3ccccc23)NC(=O)[C@H](CCCNC(=N)N)NC(=O)CNC(=O)[C@H](CCCCN)NC(=O)[C@H](Cc2ccc(O)cc2)NC(=O)[C@H](Cc2c[nH]c3ccccc23)NC1=O | bacterial growth | DH5α | 50% growth inhibition |  | IC50 | 72 µM
CC[C@H](C)[C@H](NC(=O)[C@H](CCCCN)NC(=O)[C@H](CCCCN)NC(=O)[C@H](Cc1ccccc1)NC(=O)[C@H](Cc1ccccc1)NC(=O)[C@H](CCCCN)NC(=O)[C@H](CCCCN)NC(=O)[C@H](Cc1ccccc1)NC(=O)[C@H](CCCNC(=N)N)NC(=O)[C@@H](N)CCCCN)C(=O)N[C@@H](CCCCN)C(=O)N[C@@H](CCCCN)C(=O)N[C@@H](CO)C(=O)N[C@H](C(=O)N[C@@H](CCCCN)C(=O)N[C@@H](CCCCN)C(=O)N[C@@H](CCCNC(=N)N)C(=O)N[C@H](C(=O)N[C@@H](CCCCN)C(=O)N[C@@H](CCCCN)C(=O)N[C@@H](CC(C)C)C(=O)N[C@@H](Cc1ccccc1)C(=O)N[C@@H](CCCCN)C(=O)N[C@@H](CCCCN)C(=O)N1CCC[C@H]1C(=O)N[C@@H](CCCNC(=N)N)C(=O)N[C@H](C(=O)N[C@H](C(=O)N1CCC[C@H]1C(=O)N[C@H](C(=O)N[C@@H](CO)C(=O)N[C@H](C(=O)N1CCC[C@H]1C(=O)N[C@@H](Cc1ccccc1)C(=O)O)[C@@H](C)CC)[C@@H](C)CC)[C@@H](C)CC)C(C)C)C(C)C)C(C)C |  | E27 clinical isolate | 20 h |  | MBC | 4 µg/mL
CCCCCCCCCC(=O)OCCSC[C@H](N)C(=O)N[C@H](CCN)C(=O)N[C@@H](CCN)C(=O)N[C@@H](CCN)C(=O)N[C@@H](CC(C)C)C(=O)N[C@H](Cc1ccccc1)C(=O)N[C@@H](CCN)C(=O)N[C@@H](CCN)C(=O)N[C@@H](CC(C)C)C(N)=O |  | ATCC 10546 | 24 h, 37 °C |  | MBC | 32 µM
COc1ccc(CC2[NH2+]CCc3cc(OC)c(OC)cc32)cc1OC.[Cl][Fe-]([Cl])([Cl])[Cl] (centres unmarked) |  |  | 24 h, 37 °C |  | MBC | > 1600 µM
CCCC(=O)OCCSC[C@H](N)C(=O)N[C@H](CCN)C(=O)N[C@@H](CCN)C(=O)N[C@@H](CCN)C(=O)N[C@@H](CC(C)C)C(=O)N[C@H](Cc1ccccc1)C(=O)N[C@@H](CCN)C(=O)N[C@@H](CCN)C(=O)N[C@@H](CC(C)C)C(N)=O |  | ATCC 10546 | 24 h, 37 °C |  | MBC | 16 µM
COc1c(NC(=O)c2ccc(NC(=O)c3ccc(NC(=O)[C@H](CC#N)NC(=O)c4ccc(NC(=O)/C(C)=C/c5ccc(O)cc5)cc4)cc3)c(OC)c2O)ccc(C(=O)O)c1O |  | clones expressing transporters | concentration not given | baseline: empty vector | MIC fold change | > 16 fold
CC1(C)C(NC(=O)C(=NOC2(C(=O)O)CC2)c2csc(N)n2)C(=O)N1OS(=O)(=O)O (centres unmarked) |  | ATCC 2469 NDM-1 producing, ICR mice systemic infection | intravenous, 20 mg/kg |  | survival rate | 80%
C=CS(=O)(=O)NCCCCOCc1cn(CCCCNS(=O)(=O)C=C)nn1 | growth, turbidity OD600 | ΔtolC | 24 h |  | IC50 | > 100 µM
Cc1ccc(C(=O)Sc2cccccc2=O)cc1 | microbial growth, broth dilution | ATCC35218 |  |  | MIC80 | 24.1 µM (≈ 6.18 µg/mL)
C#CCCCC(=O)N[C@H]1CCOC1=O | LuxR reporter, antagonist | DH5α sensor strain | 4 µM, added: OHHL 200 nM |  | inhibition | 65 ± 1%
CO[C@@H](C(N)=O)[C@H](NC(=O)c1ccc(NC(=O)[C@@H](N)Cc2ccccc2)cc1)C(=O)Nc1ccc(C(=O)Nc2ccc(C(=O)Nc3ccc(C(=O)O)c(O)c3OC(C)C)c(O)c2OC(C)C)cc1 |  | clones expressing AraC family proteins | concentration not given | baseline: empty vector | MIC fold change | ≤ 4 fold
CN(C)S(=O)(=O)c1ccc(S(=O)(=O)N2CCC(n3c(=O)[nH]c4ccccc43)CC2)cc1 |  | Keio wild type | concentration not given, 24 h |  | rifampicin concentration | 15.6 µg/mL
CC[C@H](C)[C@H](NC(=O)[C@H](Cc1c[nH]c2ccccc12)NC(=O)c1ccccc1)C(=O)N[C@H](C(=O)N[C@@H](Cc1ccc(O)cc1)C(=O)N[C@@H](CCCCN)C(=O)N[C@@H](Cc1c[nH]c2ccccc12)C(=O)N1CCC[C@@H]1C(=O)N[C@@H](CCCNC(=N)N)C(=O)N[C@@H](CCCCN)C(=O)N[C@@H](CCCCN)C(=O)N[C@H](C(=O)N[C@@H](CCCNC(=N)N)C(=O)N[C@@H](Cc1ccc(O)cc1)C(=O)N[C@@H](Cc1c[nH]c2ccccc12)C(=O)N[C@H](C(=O)NCC(=O)N1CCC[C@H]1C(N)=O)[C@@H](C)O)C(C)C)C(C)C | growth | DH5α | 16 h, 37 °C |  | IC50 | 95 µM
C=C(C)C(=O)NCCCCOCc1cn(CCCCNC(=O)C(=C)C)nn1 | growth, turbidity OD600 | ΔtolC | 24 h |  | IC50 | > 100 µM
CC(N)C(O)CCCCCCCCCCCCCCC(=O)CCCCCCCC(O)C(C)N (centres unmarked) | resazurin | ATCC 10536 | 50 µM |  | growth inhibition | 6 ± 0.89%
C=CCN1C(=O)C(CC=C)(C(=O)OCC)Oc2cc(F)ccc21 (centres unmarked) |  | BL21(DE3) | 100 µM |  | growth inhibition | no inhibition
C=C(C)C(=O)NCCCCCCCCCCOCc1cn(CCCCCCCCCCNC(=O)C(=C)C)nn1 | growth, turbidity OD600 | ΔtolC | 24 h |  | IC50 | > 100 µM
CC[C@H](C)CCCCC(=O)N[C@@H](CCN)C(=O)N[C@H](C(=O)N[C@@H](CCN)C(=O)N[C@H]1CCNC(=O)[C@H]([C@@H](C)O)NC(=O)[C@H](CCN)NC(=O)[C@H](CCN)NC(=O)[C@H](CC(C)C)NC(=O)[C@@H](CC(C)C)NC(=O)[C@H](CCN)NC1=O)[C@@H](C)O | daily serial passaging | ATCC 8739 | highest sub-MIC, 31 days | baseline: initial MIC | MIC fold change | 2.63
C=CC(=O)NCCCCCCCCCCOCc1cn(CCCCCCCCCCNC(=O)C=C)n[n+]1C | growth, turbidity OD600 | ΔtolC | 24 h |  | IC50 | 13.7 ± 1.8 µM
CC[C@H](C)[C@H](NC(=O)CNC(=O)[C@H](CCCCN)NC(=O)[C@@H](NC(=O)[C@H](Cc1c[nH]c2ccccc12)NC(=O)[C@H](CCCCN)NC(=O)[C@H](Cc1ccccc1)NC(=O)[C@@H](NC(=O)[C@H](CCCCN)NC(=O)[C@H](CCCCN)NC(=O)[C@@H](NC(=O)[C@H](Cc1c[nH]c2ccccc12)NC(=O)[C@H](Cc1c[nH]c2ccccc12)NC(=O)[C@@H](N)CCCCN)[C@@H](C)CC)C(C)C)[C@@H](C)CC)C(=O)NCC(=O)N[C@@H](CCCCN)C(=O)N[C@@H](CCC(=O)O)C(=O)N[C@H](C(=O)N[C@H](C(=O)N[C@H](C(=O)N[C@@H](CCCNC(=N)N)C(=O)N[C@H](C(=O)NCC(=O)N[C@H](C(=O)N[C@@H](CCC(=O)O)C(=O)N[C@H](C(=O)N[C@@H](C)C(=O)N[C@@H](C)C(=O)N[C@@H](CS)C(=O)N[C@@H](CCCCN)C(=O)N[C@H](C(=O)N[C@@H](CCCCN)C(=O)NCC(=O)N[C@@H](CCC(=O)O)C(=O)N[C@@H](CS)C(N)=O)[C@@H](C)CC)[C@@H](C)CC)[C@@H](C)CC)[C@@H](C)O)[C@@H](C)CC)C(C)C)C(C)C | colony count | PBS | 20 µg/mL, 2 h |  | bactericidal rate | 100%

Excerpt of the above:
SMILES | test | test system | conditions | how to read | quantity | result
CCCC(=O)OCCSC[C@H](N)C(=O)N[C@H](CCN)C(=O)N[C@@H](CCN)C(=O)N[C@@H](CCN)C(=O)N[C@@H](CC(C)C)C(=O)N[C@H](Cc1ccccc1)C(=O)N[C@@H](CCN)C(=O)N[C@@H](CCN)C(=O)N[C@@H](CC(C)C)C(N)=O |  | ATCC 10546 | 24 h, 37 °C |  | MBC | 16 µM
COc1c(NC(=O)c2ccc(NC(=O)c3ccc(NC(=O)[C@H](CC#N)NC(=O)c4ccc(NC(=O)/C(C)=C/c5ccc(O)cc5)cc4)cc3)c(OC)c2O)ccc(C(=O)O)c1O |  | clones expressing transporters | concentration not given | baseline: empty vector | MIC fold change | > 16 fold
CC1(C)C(NC(=O)C(=NOC2(C(=O)O)CC2)c2csc(N)n2)C(=O)N1OS(=O)(=O)O (centres unmarked) |  | ATCC 2469 NDM-1 producing, ICR mice systemic infection | intravenous, 20 mg/kg |  | survival rate | 80%
C=CS(=O)(=O)NCCCCOCc1cn(CCCCNS(=O)(=O)C=C)nn1 | growth, turbidity OD600 | ΔtolC | 24 h |  | IC50 | > 100 µM
